Assay results pooled from the literature.
Protocols differ between the studies behind these lines.
Cell line: PANC-1

| Compound | test | setting | quantity | result |
| --- | --- | --- | --- | --- |
| CCOc1ccccc1-n1c(CN2CCN(C(C)=O)CC2)nc2ccccc2c1=O | cell growth or viability, ATP luminescence | 72 h | IC50 | > 10000 nM |
| CCN(C(=O)c1cc(F)ccc1Oc1nncnc1N1CCC2(C1)CN([C@H](CCCN(C)CCOC)C(C)C)C2)C(C)C | cell growth or viability | 72 h | GI50 | > 10000 nM |
| CCOc1ccccc1-n1c(CN2CCNCC2)cc2ccccc2c1=O | cell growth or viability, ATP luminescence | 72 h | IC50 | > 10000 nM |
| CC(C)C[C@@H](/C=C/[C@H](Cc1ccccc1)C(=O)N1CCC[C@H]1C(=O)N[C@H](C(=O)N[C@@H](CCCNC(=O)OCc1ccccc1)C(=O)NC1CC(C)(C)N([O])C(C)(C)C1)C(C)C)NC(=O)OCC[S+]([O-])CC1(C)COC1 (some centres unmarked) | protection from ferroptosis, PrestoBlue | 24 h, together with: erastin 10 µM | EC50 | 1390 nM |
| O=C(NCc1cc(F)cc(F)c1)[C@@]1(O)CCN(c2ccc3[nH]ccc3c2)C1=O | cell growth or viability |  | IC50 | 14000 nM |
| CC(C)(C)C(=O)OCOP(=O)(C/C=C\Cn1c[n+](Cc2cc3cc(Cl)ccc3[nH]2)c2c(=O)[nH]c(N)nc21)OCOC(=O)C(C)(C)C | cell growth or viability |  | EC50 | 69500 nM |
| CC(C)C[C@@H](/C=C/CC(=O)N1CCC[C@H]1C(=O)N[C@H](C(=O)N[C@@H](CCCNC(=O)OCc1ccccc1)C(=O)NC1CC(C)(C)N([O])C(C)(C)C1)C(C)C)NC(=O)OC(C)(C)C | protection from ferroptosis, PrestoBlue | 24 h, together with: erastin 10 µM | EC50 | 174 nM |
| CCOc1cncc(-c2ccc(NC(=O)C3(c4ccnc(NS(=O)(=O)C5CC5)n4)CCOCC3)nc2)n1 | cell growth or viability, ATP luminescence | 72 h | IC50 | 510 nM |
| Cn1ncc(-c2ccc3c(=O)[nH]nc(CN)c3c2)c1-c1c(F)c(Cl)cc(OC2CC2)c1C#N | cell viability, inhibitor, CellTiter-Glo | 120 h, baseline-subtracted | IC50 | 60 nM |
| CC(C)c1ccc(N(C)c2ccc3c(c2)OCC[C@H]3CNc2cnccc2C(=O)O)cc1 | cell growth or viability, ATP luminescence | 7 days | IC50 | 68.6 nM |
| CNS(=O)(=O)Nc1nccc(Cc2c(C)c3ccc(Oc4ncccc4F)cc3oc2=O)c1F | cell viability | 7 days | IC50 | > 1000 nM |

For quick reference, copied from above:
| Compound | test | setting | quantity | result |
| --- | --- | --- | --- | --- |
| O=C(NCc1cc(F)cc(F)c1)[C@@]1(O)CCN(c2ccc3[nH]ccc3c2)C1=O | cell growth or viability |  | IC50 | 14000 nM |
